Results of several laboratories.
Each numbered part is a random draw from the data of one study; scales do not carry over between parts.

Study 1
Cell line: normal-adjacent organoid sample G
Method: CellTiter-Glo
Tested at: 0.1 µM
Notes: replicate mean
Reference: DMSO
`N#Cc1ccc(Nc2ccc3[nH]c(=O)[nH]c3c2)c(Cl)c1` gave a viability of 117%.
`CCOC(=O)c1cc2cc(-c3cc(C(=O)NCc4ccc(C(=O)O)cc4)nn3C)ccc2[nH]1` has a viability of 92.4%.
For `CCCCN(CCCC)C(=O)CN1C[C@H](c2cc(OC)c3c(c2)OCO3)[C@@H](C(=O)O)[C@@H]1CC(C)(C)CCC`, the viability was 105%.
`Cc1nc(Cc2cccc(C(F)(F)F)c2)sc1-c1ccc(C(N)=O)nc1` gave a viability of 107%.
The viability of `CNC(=O)c1ccc(Nc2ncc(C(F)(F)F)c(NCc3nccnc3N(C)S(C)(=O)=O)n2)cc1` is reported as 84.3%.
The viability of `Cc1c(NC(=O)c2cc(C(N)=O)nc3cc(F)ccc23)c(C(F)(F)F)nn1Cc1ccc(C(C)(C)C)cc1` is reported as 98.8%.
With `CCS(=O)(=O)c1cc2cc(C[C@@](O)(CC(C)(C)c3ccc(F)cc3C(N)=O)C(F)(F)F)[nH]c2cn1` the viability was 102%.
The viability of `CNCc1ccccc1-c1csc([C@H](C)Nc2nc(C)nc3cc(OC)c(OC)cc23)c1` is reported as 106%.
`Cc1cc(Nc2nccc(C)n2)cc(-c2cnc([C@@]3(O)CC[C@H](C(=O)O)C(C)(C)C3)s2)c1` gave a viability of 107%.
The viability of `O=S(=O)(NC1CCC(c2cc(F)ccc2F)(S(=O)(=O)c2ccc(Cl)cc2)CC1)C(F)(F)F` (stereo not drawn) is reported as 117%.
`O=C(NCc1ncc(C(F)(F)F)cc1Cl)c1ccc2c(c1)C1(CCS(=O)(=O)CC1)[C@H](C1CC1)N2S(=O)(=O)c1ccc(F)cc1` has a viability of 104%.
`CN(C)C(=O)Cn1cc(-c2nc([C@@](C)(c3ccc(-c4cnc(N)nc4)cc3)C3CC3)no2)cn1` has a viability of 108%.
`COc1cccc(CNC(=O)c2nc3scc(COCc4ccc(C(=O)O)cc4)c3c(=O)[nH]2)c1` gave a viability of 113%.
For `Nc1cnc(N2CCc3cc(S(=O)(=O)Nc4c(F)cc(Cl)cc4F)cc(N4CCCC4=O)c32)nc1`, the viability was 103%.
For `Cc1cc(C)c(-n2ccn3nc(-c4cccnc4)cc23)cc1NC(=O)c1cc(C#N)cc(S(F)(F)(F)(F)F)c1`, the viability was 110%.
For `CC(C)(C)OC(=O)N1CCCC1CNC1CCC(c2cc(F)ccc2F)(S(=O)(=O)c2ccc(Cl)cc2)CC1` (stereo not drawn), the viability was 118%.
With `O=C(O)[C@H]1[C@H](Cn2nnc3ccccc3c2=O)CC[C@@H]1C(=O)c1ccc(OCCC2CCOCC2)cc1` the viability was 140%.
The viability of `Cc1ccc(-c2cnc([C@@]3(O)CC[C@H](C(=O)O)C(C)(C)C3)s2)cc1Nc1cccc(C(F)(F)F)n1` is reported as 113%.
For `O=C(N[C@H]1CCCCC/C=C\C2C[C@@]2(C(=O)O)NC(=O)[C@@H]2C[C@@H](Oc3ccncc3)CN2C1=O)OC1CCCC1` (stereo partly drawn), the viability was 140%.
For `O=C(Nc1ccc(-n2nc(-c3cccnc3)cc2C(F)(F)F)cn1)c1ccc(-c2ccccc2)c(F)c1`, the viability was 120%.
The viability of `C[C@@H]1CN(c2cc(-c3n[nH]c4ccc(OC5(C)CC5)cc34)ncn2)C[C@H](C)O1` is reported as 108%.

Study 2
Cell line: mouse MPNST tumor cells
Method: high-content immunofluorescence imaging
Item: nuclear SOX9
Tested at: 10 µM
Time: 12 h
Notes: mean of 2 replicates
Reference: DMSO control
Reading: higher = more nuclear SOX9
For `Cc1nn(-c2ccccc2)c(C)c1C=NN1CCN(Cc2ccccc2)CC1`, “nuclear SOX9 intensity” read 100 % of DMSO.
For `N#Cc1ccc(-c2csc(NN=C3CCCC3)n2)cc1`, “nuclear SOX9 intensity” read 117 % of DMSO.
Under “nuclear SOX9 intensity”, `C1CNCCN1` is recorded as 103 % of DMSO.
For `Nc1ncnc2c1ncn2[C@@H]1O[C@H](CO)[C@@H](O)[C@H]1O`, “nuclear SOX9 intensity” read 96.4 % of DMSO.

Study 3
Target: Beta-1 adrenergic receptor (ADRB1, Homo sapiens, UniProt P08588)
UniProt P08588, sequence (whole entry, looked up): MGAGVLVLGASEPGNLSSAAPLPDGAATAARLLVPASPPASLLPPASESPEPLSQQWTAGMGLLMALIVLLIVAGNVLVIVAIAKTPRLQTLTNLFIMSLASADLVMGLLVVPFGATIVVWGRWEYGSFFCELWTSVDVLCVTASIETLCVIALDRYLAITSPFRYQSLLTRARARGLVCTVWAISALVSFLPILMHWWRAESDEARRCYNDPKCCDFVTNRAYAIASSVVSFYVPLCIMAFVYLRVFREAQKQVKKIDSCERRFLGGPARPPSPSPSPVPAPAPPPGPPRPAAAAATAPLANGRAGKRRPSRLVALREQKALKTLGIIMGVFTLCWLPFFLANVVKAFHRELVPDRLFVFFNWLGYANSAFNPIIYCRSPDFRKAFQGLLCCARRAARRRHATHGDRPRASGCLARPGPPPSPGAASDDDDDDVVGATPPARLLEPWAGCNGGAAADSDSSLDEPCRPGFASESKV
Mode: antagonist
With `Fc1ccc(-c2nnc3ccc(N4CCc5ccccc5CC4)nn23)nc1` the IC50 was no less than 100 µM.
`OC(c1ccccc1)c1nc(Nc2ccc(N3CCOCC3)cc2)n[nH]1` (stereo not drawn) gave an IC50 of no less than 100 µM.
The IC50 of `O=C1c2cnc(-c3cccc(O)c3)nc2OCCN1c1cccc(C(F)(F)F)c1` is reported as no less than 100 µM.
For `OC(c1ccc2c(c1)CCO2)c1nc(Nc2cccc(C(F)(F)F)c2)n[nH]1` (stereo not drawn), the IC50 was no less than 100 µM.
The IC50 of `CN(CC(O)COc1cccc(CNCCc2ccc(F)cc2)c1)C1CCCCC1` (stereo not drawn) is reported as no less than 100 µM.
`CN1CCN(c2ccccc2CNCc2ccccc2)CC1` gave an IC50 of no less than 100 µM.

Study 4
Species: mouse
Medium: microsomes or S9
Tested at: 2 µM
Time: 0.5 h
`N#Cc1cnc(NCC2CCN(CC(O)c3ccccc3)CC2)cn1` (stereo not drawn) has a remaining compound of 96.7%.
`CCOC(=O)Cc1c(-c2cc3ccccc3n2C)[nH]c2ccccc12` has a remaining compound of 0.492%.
`COc1ccc(OC)c(CNC(=O)C23CCCC=C2N(C2CCCC2)C(=O)CC3)c1` (stereo not drawn) has a remaining compound of 0.437%.
`CC1(C)Oc2c(ccnc2Cl)[C@H](N(Cc2ncc[nH]2)c2ccc(Cl)cc2Cl)[C@H]1O` gave a remaining compound of 1.81%.
`CCC1c2cccn2-c2sc3c(c2CN1C(=O)NCCCOC)CCCC3` (stereo not drawn) gave a remaining compound of 1.01%.

Study 5
Target: Calcium/calmodulin-dependent protein kinase type II subunit alpha (CAMK2A, Homo sapiens, UniProt Q9UQM7)
UniProt Q9UQM7, sequence (whole entry, looked up): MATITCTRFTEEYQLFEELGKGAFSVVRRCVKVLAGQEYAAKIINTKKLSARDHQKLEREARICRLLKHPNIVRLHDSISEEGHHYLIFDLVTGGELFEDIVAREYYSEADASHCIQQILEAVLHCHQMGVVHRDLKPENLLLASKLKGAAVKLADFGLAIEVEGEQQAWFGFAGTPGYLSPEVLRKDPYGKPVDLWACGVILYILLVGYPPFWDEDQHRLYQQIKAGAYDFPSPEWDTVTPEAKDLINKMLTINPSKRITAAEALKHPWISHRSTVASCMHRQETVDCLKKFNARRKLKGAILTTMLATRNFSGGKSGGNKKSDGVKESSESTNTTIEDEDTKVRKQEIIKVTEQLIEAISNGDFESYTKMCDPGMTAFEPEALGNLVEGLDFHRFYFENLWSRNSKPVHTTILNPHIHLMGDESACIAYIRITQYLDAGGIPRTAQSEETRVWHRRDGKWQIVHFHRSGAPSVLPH
Read-out: enzyme activity
Mode: inhibitor
Tested at: 10 µM
`CC1(C)CC[C@]2(C(=O)O)[C@H](O)C[C@]3(C)C(=CC[C@@H]4[C@@]5(C)C[C@H](O)[C@H](O)C(CO)(CO)[C@@H]5CC[C@]43C)[C@@H]2C1` gave an inhibition of -30%.
The inhibition of `COc1ccc(-c2cc(=O)c3c(OC)cc(OC)c(OC)c3o2)cc1OC` is reported as 19%.
The inhibition of `COc1c(O[C@@H]2O[C@H](CO[C@@H]3OC[C@@H](O)[C@H](O)[C@H]3O)[C@@H](O)[C@H](O)[C@H]2O)cc2occ(-c3ccc(O)cc3)c(=O)c2c1O` is reported as -6%.
`C#CCC(Cc1cnc2nc(N)nc(N)c2n1)c1ccc(C(=O)N[C@@H](CCC(=O)O)C(=O)O)cc1` (stereo partly drawn) gave an inhibition of -6%.
The inhibition of `CCn1c(=O)c2c(nc(/C=C/c3ccc(OC)c(OC)c3)n2C)n(CC)c1=O` is reported as 3%.
The inhibition of `CC(=O)c1ccc2ccccc2c1` is reported as -40%.
